# Published values collected from several papers.
# Every numbered part comes from another study and shows a few of its results, in no order.

# Set 1
# Target: human cyclin A2
# Technique: competitive growth deep sequencing
# Form: peptide
# Organism: Saccharomyces cerevisiae
# Strain: cyclin A2-Cln2 fusion strain
# Setting: peptide tiling library
# Direction: direction not given
Molecule,enrichment score
KDDDKAWEYEERDRRS,0.753
LAKRALKYTD,0.507
QDYERRLLRQIVIQNE,0.0577
CFRCLLFSFSGRSGVE,-0.0618
RSLKLDGLLEEN,0.832
TSPGPVLLHPSPSTTQ,0.425
LKGRRLVFDN,1.07
KPITLDTTDFQESFVT,0.496
PFSENVSAVQKLDFSD,1.85
ESSTVSEEDYFSSHRD,0.959
EPKTLFLGAGDFQF,1.62
IQKKLRFEDTLEFVGF,0.0342
SDSTVTKLDFDLEP,0.45

# Set 2
# Target: Histone acetyltransferase KAT6A, both winged helices, GST fusion (KAT6A, Homo sapiens, UniProt Q92794, residues 1-181)
# Technique: protein binding microarray
# Form: double-stranded DNA, one strand shown
# Medium: in vitro
# Tested at: not given
# Setting: 8-mer, flanks averaged, mean of 2 arrays, mostly near background
# Reference: not given
# Direction: higher = stronger binding
# Residues (chain): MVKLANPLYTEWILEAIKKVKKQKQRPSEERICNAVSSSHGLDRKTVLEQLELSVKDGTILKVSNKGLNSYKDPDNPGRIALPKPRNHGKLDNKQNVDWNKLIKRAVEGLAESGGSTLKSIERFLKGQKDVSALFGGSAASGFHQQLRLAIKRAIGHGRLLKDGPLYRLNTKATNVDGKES
Strand,E-score
ACGATCGA,-0.0252
GGAGTCCC,-0.0179
AAGGTGAC,-0.209
CATACGAA,-0.0442
AAGCCCGG,0.19
ATGCGACC,0.196
GGACAACA,-0.123
TAGGAGAA,-0.244
GAGCGATA,0.0579
ACTTCGAT,0.0258
ACTACAGA,-0.0279
AAGAGAGG,-0.202
GCGCACAC,0.251
CATACCCC,-0.054
CCCTTCTC,-0.0939
ACCCGGAA,0.183
CGTGTAAC,0.0467
CGTAGTCA,-0.0295
CTCTAGCA,-0.28
ACGCGATC,0.171
CGCACCCC,0.0972
ATTTTATC,0.0414
ATTGTCTC,-0.082
CGGTACAA,0.206
AATTACAA,-0.0919

# Set 3
# Target: Sal-like protein 4, full length isoform A (SALL4, Homo sapiens, UniProt Q9UJQ4, residues 1-1053)
# UniProt Q9UJQ4, sequence (whole entry, looked up): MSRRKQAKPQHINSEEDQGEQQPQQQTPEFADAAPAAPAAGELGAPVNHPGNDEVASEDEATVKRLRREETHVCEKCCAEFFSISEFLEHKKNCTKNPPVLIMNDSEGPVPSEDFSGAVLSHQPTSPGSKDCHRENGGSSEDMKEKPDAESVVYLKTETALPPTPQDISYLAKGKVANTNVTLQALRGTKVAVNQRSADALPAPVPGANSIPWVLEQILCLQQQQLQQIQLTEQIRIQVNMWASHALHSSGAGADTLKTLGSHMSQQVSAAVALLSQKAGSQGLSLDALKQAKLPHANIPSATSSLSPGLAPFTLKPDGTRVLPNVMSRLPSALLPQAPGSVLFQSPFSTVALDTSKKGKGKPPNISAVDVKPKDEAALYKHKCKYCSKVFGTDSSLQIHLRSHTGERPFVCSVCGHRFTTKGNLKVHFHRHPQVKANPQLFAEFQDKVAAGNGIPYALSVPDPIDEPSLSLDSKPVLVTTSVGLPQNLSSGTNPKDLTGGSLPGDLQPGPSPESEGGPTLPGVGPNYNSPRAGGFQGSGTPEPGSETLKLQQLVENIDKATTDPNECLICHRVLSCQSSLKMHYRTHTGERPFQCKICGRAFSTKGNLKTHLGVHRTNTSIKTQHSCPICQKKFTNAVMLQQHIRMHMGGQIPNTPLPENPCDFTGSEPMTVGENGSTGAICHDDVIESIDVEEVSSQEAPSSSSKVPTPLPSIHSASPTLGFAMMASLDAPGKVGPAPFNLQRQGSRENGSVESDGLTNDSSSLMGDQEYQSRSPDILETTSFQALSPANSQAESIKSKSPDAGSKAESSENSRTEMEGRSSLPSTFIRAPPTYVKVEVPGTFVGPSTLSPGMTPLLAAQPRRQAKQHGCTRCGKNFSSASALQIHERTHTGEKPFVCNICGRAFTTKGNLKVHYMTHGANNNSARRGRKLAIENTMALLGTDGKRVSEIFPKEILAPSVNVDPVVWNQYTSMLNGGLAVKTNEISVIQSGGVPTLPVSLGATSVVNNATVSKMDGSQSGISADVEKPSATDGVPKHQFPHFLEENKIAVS
# Technique: universal PBM
# Form: double-stranded DNA, one strand shown
# Medium: in vitro
# Tested at: 600 nM
# Setting: 8-mer, flanks averaged, mean of replicates
# Direction: higher = stronger binding
Strand,E-score
GGCCGCCA,-0.309
CCTTGCAA,-0.165
AGGCGACC,-0.251
CGTTAGAA,0.179
ACCATCTC,-0.0463
CCCGGGAC,-0.394
CCTACGAA,-0.0652
GAAGCCCC,-0.256
CCCCGACG,-0.331
CTTCCTAA,0.2
CCTTTCCG,-0.185
TAATTCGA,0.263
TACGGTAA,0.27
AGCAAGGC,-0.243
TATGGCCA,0.0694
AATGCTCT,0.0794
CATTAAAG,0.209
GGCACGGA,-0.205
CACCTCCG,-0.238
GATGGACC,-0.118
GATGACTA,0.0561

# Set 4
# Target: Ras GTPase-activating protein-binding protein 1, C-terminal RGG region (G3BP1, Homo sapiens, UniProt Q13283)
# UniProt Q13283, sequence (whole entry, looked up): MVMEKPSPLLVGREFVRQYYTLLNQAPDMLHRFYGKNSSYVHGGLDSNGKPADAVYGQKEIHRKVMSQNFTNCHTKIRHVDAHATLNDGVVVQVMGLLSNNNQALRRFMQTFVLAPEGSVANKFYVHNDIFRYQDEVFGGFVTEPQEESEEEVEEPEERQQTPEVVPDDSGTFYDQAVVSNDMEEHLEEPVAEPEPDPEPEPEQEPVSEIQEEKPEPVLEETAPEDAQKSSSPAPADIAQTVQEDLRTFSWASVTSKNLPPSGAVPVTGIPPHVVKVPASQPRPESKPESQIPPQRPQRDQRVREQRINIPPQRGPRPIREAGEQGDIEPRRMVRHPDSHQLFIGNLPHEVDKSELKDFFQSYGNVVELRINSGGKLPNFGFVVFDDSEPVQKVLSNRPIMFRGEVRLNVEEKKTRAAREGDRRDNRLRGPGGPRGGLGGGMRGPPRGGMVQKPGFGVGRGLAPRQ
# Technique: RNA Bind-n-Seq
# Form: RNA
# Medium: in vitro
# Tested at: 1 µM
# Setting: whole 134-nt RNA, ends assumed
# Added: 150 mM KCl
# Reference: input library
# Direction: higher = stronger binding
# All sequences stand within: GGGAGUUCUACAGUCCGACGAUC … UGGAAUUCUCGGGUGUCAAGG
Strand,log2 enrichment
CACAGACAACACGCACCCACACAGACACAAAAGGAAGGGGUUGGGAUGGGGACAGGGUGCACAGCAGGGCGGGGUAGGACCCCAGCCCCU,-0.25
AAGUCCUGUGCUACACAUCGUAUGUACCGAAUCGGGGUUUUGGGGUUUUGGUUUUGGAAAGUAUUAUGUUACGCCGUUCGGAUCUGCACU,-1.12
AGUCCUGUGCUACACAUCGUAUGUACCGAAUCGGGGAGGGGAAAAAAAGGGGUGGGGAAAGUAUUAUGUUACGCCGUUCGGAUCUGCACU,1.89
CAAGUCCUGUGCUACACAUCGUAUGUACCGAAUCGGGGAAAGGAAAGGGAAAGGGAAAGUAUUAUGUUACGCCGUUCGGAUCUGCACUUC,-1.03
UCAAGUCCUGUGCUACACAUCGUAUGUACCGAAUCGGAAAGGGGAAAGGGAAAGGAAAGUAUUAUGUUACGCCGUUCGGAUCUGCACUUC,-1.54
CACAGACAACACGCACCCACACAGACACAGAGGGAAGGGGUUGGGAUGGGGACAGGGUGCACAGCAGGGCGGGGUAGGACAAAAGCCCCU,-0.265
UUAGGGCCAAUCUUCGUCAAUAUGGUUUAGAGAAGUAUUACCUUGAUGUCCUGGUUUCAGAUGCAUCUAAACCUUCCUGGAGGAAGGGCA,-1.06
GUCCUGUGCUACACAUCGUAUGUACCGAAUCGGGAAAAAGGAAAAAGGGAAAAAGGGGAAAGUAUUAUGUUACGCCGUUCGGAUCUGCAC,-1.27
CCUCAAGUCCUGUGCUACACAUCGUAUGUACCGAAUCGGGGUGGGUGGUGGGAAAGUAUUAUGUUACGCCGUUCGGAUCUGCACUUCCAG,0.576

# Set 5
# Target: RNA binding protein fox-1 homolog 2, RRM domain, GST-SBP tag (RBFOX2, Homo sapiens, UniProt O43251-10, residues 100-194)
# Technique: RNA Bind-n-Seq
# Form: RNA
# Medium: in vitro
# Tested at: 365 nM
# Setting: natural RNA segment, single round, ends assumed
# Reference: no-protein control
# Direction: higher = stronger binding
# All sequences stand within: GGGAGUUCUACAGUCCGACGAUC … UGGAAUUCUCGGGUGCCAA
# Residues (chain): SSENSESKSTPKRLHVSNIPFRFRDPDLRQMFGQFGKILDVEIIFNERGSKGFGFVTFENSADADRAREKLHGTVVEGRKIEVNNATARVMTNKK
Strand,RBNS enrichment (R)
UGAGUCCAGCAUUUGGGUAUUGAGACAGCCUAGGGUACACAGGCACAAGACCCUGUCUCAACCAGAAAAGAAAAAUGUGUUUGCCAAAUCAUAACUCAGGGGCUUUGAAC,1.08
AAGUCAGAAGUUUAAAAUGUGUUAUAGUUUGCUAAAAAAAAAUCAAAUUAACUGCAUAUAAAAUGGUUCACUUUUAUAUAGUCACAUGUAAUGGGCCUGAAAAAGUUUCU,0.753
CGAGGAGAACUGAGACUCUGCCUUACCACCGCAGUGCGGGGCACCUCUCCCAGCGUUUCUCCGGUUUGCCAAUCCUCUUAAGUAUUCCUGUCUCCAAAGGACCGGCUCUC,0.196
GAUAAAUAGCAAGAAUGGAUGUGUAAUGUGACAAUCAAGGCAGAUAUUUGUUCUAGUUGGAAAGACGAAGCACUUUAUAAGCAUCAGACAAGUGUUUGGGACUAAUUGAG,0.799
CCCAGCCCCCAGGCACAAGGGGCAGAGAGACAGGCAGUCGCCCCAGAUAGGCUCCGGGGAAGUCCAUUCCAGCUGCCACCGGCAGACAGGAGGAUAGUUGUUCUGUCUUG,0.211
GAUUUGCCAGUUUGGUGAAUACAGAUUGGUUCAUGGUUGUAGGUGUAGCUCAGAGUGCUUGUCUAACAUGCAAAAACCCUUGGAUUCAAUUUCUAGUACUGUUAGAAGAG,0.28
UUAGAGUAGUUGAAAUCUUUAGGAAUGAACUUCUGAGGGCCAAAAAAUGUGACUGACGGGAACAAUUCUUAAACUGAUUAACUAGCUGUAAUAUAGUUUUGUGAAUUUAU,0.561
CUGAGGCUCAUCUGAUACCUGCACCUUCUCCCCAAGCCAGCGUGGACCCUGGUGUCUAUGGUGAAGCUGGGCCCUCCCACCCUGAGCCUUCCUAGACCCUUGGACUCUCA,0.336
